Values quoted from earlier work as cited in several papers.
± marks the error that the study gave.
UniProt P42336, sequence (whole entry, unmodified, looked up): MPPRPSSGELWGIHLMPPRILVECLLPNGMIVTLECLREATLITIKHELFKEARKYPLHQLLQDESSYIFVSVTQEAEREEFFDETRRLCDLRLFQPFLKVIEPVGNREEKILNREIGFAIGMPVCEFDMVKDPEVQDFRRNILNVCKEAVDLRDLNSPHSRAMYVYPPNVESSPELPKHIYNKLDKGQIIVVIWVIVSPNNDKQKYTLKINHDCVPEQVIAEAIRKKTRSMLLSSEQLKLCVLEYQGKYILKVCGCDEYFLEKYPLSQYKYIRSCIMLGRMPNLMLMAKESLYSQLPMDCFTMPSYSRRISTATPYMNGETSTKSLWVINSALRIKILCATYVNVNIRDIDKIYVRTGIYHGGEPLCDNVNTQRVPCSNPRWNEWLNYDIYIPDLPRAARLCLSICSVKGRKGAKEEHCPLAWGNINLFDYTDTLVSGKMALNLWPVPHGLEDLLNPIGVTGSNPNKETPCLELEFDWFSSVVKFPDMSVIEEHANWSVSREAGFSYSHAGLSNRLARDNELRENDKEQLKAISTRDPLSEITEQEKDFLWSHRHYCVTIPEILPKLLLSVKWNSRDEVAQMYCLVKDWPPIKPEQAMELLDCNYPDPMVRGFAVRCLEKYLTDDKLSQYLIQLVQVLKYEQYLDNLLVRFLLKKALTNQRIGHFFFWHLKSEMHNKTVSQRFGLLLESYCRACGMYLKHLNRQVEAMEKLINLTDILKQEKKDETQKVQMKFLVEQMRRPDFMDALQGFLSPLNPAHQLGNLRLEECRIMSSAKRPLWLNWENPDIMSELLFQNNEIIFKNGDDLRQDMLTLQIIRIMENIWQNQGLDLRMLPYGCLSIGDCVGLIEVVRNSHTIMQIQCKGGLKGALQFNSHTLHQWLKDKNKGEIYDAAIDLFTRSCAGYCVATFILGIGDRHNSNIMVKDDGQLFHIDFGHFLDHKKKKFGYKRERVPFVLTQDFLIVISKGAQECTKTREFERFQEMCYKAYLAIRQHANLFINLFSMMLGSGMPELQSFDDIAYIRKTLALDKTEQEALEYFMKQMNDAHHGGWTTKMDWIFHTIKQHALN

O=C(O)C(F)(F)C(F)(F)C(F)(F)C(F)(F)C(F)(F)C(F)(F)F  renal clearance (human, young female): 0.17 mL/day/kg
CC(C)C[C@H](NC(=O)CNC(=O)c1cc(Cl)ccc1Cl)B(O)O  blood to plasma ratio (blood): 2.38
CC[C@H]1OC(=O)[C@H](C)[C@@H](O[C@H]2C[C@@](C)(OC)[C@@H](O)[C@H](C)O2)[C@H](C)[C@@H](O[C@@H]2O[C@H](C)C[C@H](N(C)C)[C@H]2O)[C@](C)(OC)C[C@@H](C)C(=O)[C@H](C)[C@@H](O)[C@]1(C)O  AUC(0-t) ratio (human; added: ritonavir; baseline: with over without ritonavir): 1.86
CCCCCOc1ccc(-c2ccc(-c3ccc(C(=O)N[C@H]4C[C@@H](O)[C@@H](O)NC(=O)[C@@H]5[C@@H](O)[C@@H](C)CN5C(=O)[C@H]([C@@H](C)O)NC(=O)[C@H]([C@H](O)[C@@H](O)c5ccc(O)cc5)NC(=O)[C@@H]5C[C@@H](O)CN5C(=O)[C@H]([C@@H](C)O)NC4=O)cc3)cc2)cc1  clearance (ICU patients; 200/100 mg): 1.6 ± 0.6 L/h
O=c1ccc2ncc(=O)n3c2n1C[C@H]3CN1CCC(NCc2cc3c(cn2)OCCC3)CC1  dose eliminated by metabolism (urine plus faeces; intravenous; baseline: dose): ~19%
COc1cc(Cl)cc(CC(=O)Nc2cnccc2C)c1  inhibition (main protease (Mpro); 20 µM): 24.6%
Oc1ccc2c3c1O[C@H]1c4[nH]c5c(c4C[C@@]4(O)[C@@H](C2)N(CC2CC2)CC[C@]314)C[C@@]1(O)[C@H]2Cc3ccc(O)c4c3[C@@]1(CCN2CC1CC1)[C@H]5O4  duration of detection (mouse, brain; subcutaneous, dose not given): 21 days
COc1cc2c(c(OC)c1OC)-c1ccc(OC)c(=O)cc1[C@@H](NC(C)=O)CC2  renal clearance (human; median, range): 2780 mL/day/kg
Nc1ncc(-c2nc(N3CCOCC3)nc(N3CCOCC3)n2)c(C(F)F)n1  remaining binding (PIK3CA (Homo sapiens, UniProt P42336, Q546K); KinomeScan competition binding; 10 µM): 0%
CO[C@@H]1CC/C=C/c2cccc(c2)[C@@H](CCNC(=O)OC(C)(C)C)OC(=O)[C@@H]2CCCN(N2)C(=O)[C@H](C)NC(=O)[C@H](C(C)C)NC(=O)[C@@H]1C  Kd (cyclophilin; inhibitor): 24 nM
CNS(=O)(=O)Nc1nccc(Cc2c(C)c3ccc(Oc4ncccn4)cc3oc2=O)c1F  maximum tolerated dose (human patients; oral, once daily): 2.25 mg
C#C[C@]1(O)CC[C@H]2[C@@H]3CCc4cc(O)ccc4[C@H]3CC[C@@]21C  AUC (human, plasma; dose not given, range of reported values): 0.001 to 3.5 µM·h
CCN(CC)CCCC(C)Nc1ccnc2cc(Cl)ccc12 (stereo not shown)  Ki (sigma-1 receptor; binding): 100 nM
CCN(CC)N=O  mutation frequency (fingerprint mutation, refers to: T>A substitution; mouse, liver; concentration not given): increased
O=S(=O)(O)C(F)(F)C(F)(F)C(F)(F)C(F)(F)C(F)(F)C(F)(F)C(F)(F)C(F)(F)F  renal clearance (human, young female): 0.038 mL/day/kg
O=C(O)C(Br)Br  cumulative urinary excretion (rat, urine; oral gavage, 100 mg/kg, 48 h, includes endogenous amounts): 128 ± 22.8 µg
COC(=O)[C@@H]1C[C@H](OC(C)=O)C(=O)[C@H]2[C@@]1(C)CC[C@H]1C(=O)O[C@H](c3ccoc3)C[C@]21C  Ki (kappa opioid receptor L212A): 1.7 ± 1 nM
O=C(Nc1cccnc1)N(CCC1CCCCC1)c1cccc(Cl)c1  inhibition (main protease (Mpro); 20 µM): 83.3%
CCc1c2c(nc3ccc(OC(=O)N4CCC(N5CCCCC5)CC4)cc13)-c1cc3c(c(=O)n1C2)COC(=O)[C@]3(O)CC  NOAEL (refers to: offspring development; rat; dosing before to early pregnancy): 6 mg/kg
O=C(O)C(F)(F)C(F)(F)C(F)(F)C(F)(F)C(F)(F)C(F)(F)C(F)(F)C(F)(F)C(F)(F)C(F)(F)F  renal clearance (human; mean): 0.005 mL/day/kg
O=C(O)C(F)(F)C(F)(F)C(F)(F)C(F)(F)C(F)(F)C(F)(F)C(F)(F)F  blood-to-plasma ratio (blood): 0.55
CCCC(CCC)C(=O)O  protective index (male rat; i.p., MES seizure test): 2.1

Excerpt of the above:
COc1cc(Cl)cc(CC(=O)Nc2cnccc2C)c1  inhibition (main protease (Mpro); 20 µM): 24.6%
